Earlier results, collected from citations in different studies.
Each numbered part shows a few of the values that one paper quotes. Numbers after ± are the reported error.

Set 1
Organism: Cryptosporidium parvum
Method: high-throughput screen
Tested at: concentration not given
Under activity, `CC(COc1ccccc1)N(CCCl)Cc1ccccc1` (centres unmarked) is recorded as “inactive”.
`CN(C)CCCSc1ccccc1NC(=O)/C=C/c1ccccc1` — result for activity: “inactive”.
`c1ccc(CC2=NCCN2)cc1` — result for activity: “inactive”.
`CCN1CCC[C@H]1CNC(=O)c1c(O)c(Cl)cc(Cl)c1OC`: activity “inactive”.
Under activity, `CC(=O)NCCCCCCNC(C)=O` is recorded as “inactive”.

Other studies, line by line
The IC50 of `CC(=O)Nc1c(C(C)=O)c(=O)n(C)c2nc(-c3ccc(Cl)cc3Cl)c(-c3ccc(Cl)cc3)cc12` is reported as 3260 nM (EGFR; off-target panel).
For `CN1CC(=O)N2[C@H](c3ccc4c(c3)OCO4)c3[nH]c4ccccc4c3C[C@@H]2C1=O`, the AUC(0-t) was 158 ± 85.7 ng·h/mL (rat; oral, 1 mg/kg).
`Cc1cc(Nc2nccc(C)n2)cc(-c2cnc([C@@]3(O)CC[C@H](C(=O)O)C(C)(C)C3)s2)c1` has an IC50 of 242 nM (JAK2; kinase panel).
With `O=C1c2ccccc2-c2n[nH]c3cccc1c23` the Ki was 190 nM (JNK; ATP-competitive inhibitor).
`C[C@@H](c1cccc(C#N)c1)n1cc(Cl)cc(C(N)=O)c1=N` has a Ki of 130 nM (ADRA1D).
`Cc1cc(C)c(-n2ccn3nc(-c4cccnc4)cc23)cc1NC(=O)c1cc(C#N)cc(S(F)(F)(F)(F)F)c1` gave a Kd of 25 nM (EPHB6; KINOMEscan).

A few entries again (set 1):
`c1ccc(CC2=NCCN2)cc1` — result for activity: “inactive”.
`CCN1CCC[C@H]1CNC(=O)c1c(O)c(Cl)cc(Cl)c1OC`: activity “inactive”.
